# Measured values collected from several papers.
# Compare with care: the assays were run in different laboratories.
# KCNH2: Voltage-gated inwardly rectifying potassium channel KCNH2 (KCNH2, Homo sapiens, UniProt Q12809)
# UniProt Q12809, sequence (whole entry, looked up): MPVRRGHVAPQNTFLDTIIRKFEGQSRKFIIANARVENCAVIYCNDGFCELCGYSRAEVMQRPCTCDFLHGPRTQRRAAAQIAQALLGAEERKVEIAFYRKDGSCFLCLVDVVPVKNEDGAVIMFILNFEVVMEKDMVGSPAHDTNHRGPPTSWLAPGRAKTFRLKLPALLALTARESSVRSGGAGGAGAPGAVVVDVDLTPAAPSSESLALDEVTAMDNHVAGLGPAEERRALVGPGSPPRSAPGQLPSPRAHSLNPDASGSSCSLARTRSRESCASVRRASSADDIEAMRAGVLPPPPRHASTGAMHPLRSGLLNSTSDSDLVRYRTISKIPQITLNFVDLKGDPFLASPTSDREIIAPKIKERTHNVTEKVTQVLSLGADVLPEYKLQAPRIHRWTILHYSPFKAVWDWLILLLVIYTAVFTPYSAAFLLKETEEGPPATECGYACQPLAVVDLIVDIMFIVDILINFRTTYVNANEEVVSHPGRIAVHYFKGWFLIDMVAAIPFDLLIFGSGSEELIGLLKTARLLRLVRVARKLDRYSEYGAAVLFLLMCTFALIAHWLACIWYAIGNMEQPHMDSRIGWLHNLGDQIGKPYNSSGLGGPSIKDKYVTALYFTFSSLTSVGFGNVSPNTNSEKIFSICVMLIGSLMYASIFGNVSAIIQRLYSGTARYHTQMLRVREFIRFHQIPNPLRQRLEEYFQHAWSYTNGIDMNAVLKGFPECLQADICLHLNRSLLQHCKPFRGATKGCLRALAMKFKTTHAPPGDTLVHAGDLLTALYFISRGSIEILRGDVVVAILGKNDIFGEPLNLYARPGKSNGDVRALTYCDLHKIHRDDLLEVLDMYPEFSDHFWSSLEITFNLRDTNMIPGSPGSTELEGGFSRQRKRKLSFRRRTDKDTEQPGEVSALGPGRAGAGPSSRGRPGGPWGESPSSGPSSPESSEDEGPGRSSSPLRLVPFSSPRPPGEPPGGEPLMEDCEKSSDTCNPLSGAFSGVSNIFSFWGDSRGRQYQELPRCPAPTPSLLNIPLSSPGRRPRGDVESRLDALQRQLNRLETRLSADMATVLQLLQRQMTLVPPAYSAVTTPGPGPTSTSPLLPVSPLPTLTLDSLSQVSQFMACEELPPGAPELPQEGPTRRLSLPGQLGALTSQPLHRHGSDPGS
# UniProt O94788, sequence (whole entry, looked up): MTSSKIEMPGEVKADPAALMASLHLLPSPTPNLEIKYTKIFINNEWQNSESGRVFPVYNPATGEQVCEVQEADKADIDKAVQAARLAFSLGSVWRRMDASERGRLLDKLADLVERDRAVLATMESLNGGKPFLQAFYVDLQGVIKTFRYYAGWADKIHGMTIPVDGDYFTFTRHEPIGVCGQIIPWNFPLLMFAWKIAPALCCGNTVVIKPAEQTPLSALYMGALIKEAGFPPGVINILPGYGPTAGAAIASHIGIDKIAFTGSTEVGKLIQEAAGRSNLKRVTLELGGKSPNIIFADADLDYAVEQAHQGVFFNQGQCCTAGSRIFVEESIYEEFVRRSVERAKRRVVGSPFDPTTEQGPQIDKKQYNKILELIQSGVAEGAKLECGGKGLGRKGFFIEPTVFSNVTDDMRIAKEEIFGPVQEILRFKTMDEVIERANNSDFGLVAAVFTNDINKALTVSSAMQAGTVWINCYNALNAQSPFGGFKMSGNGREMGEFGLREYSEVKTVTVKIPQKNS
# UniProt P10721, sequence (whole entry, looked up): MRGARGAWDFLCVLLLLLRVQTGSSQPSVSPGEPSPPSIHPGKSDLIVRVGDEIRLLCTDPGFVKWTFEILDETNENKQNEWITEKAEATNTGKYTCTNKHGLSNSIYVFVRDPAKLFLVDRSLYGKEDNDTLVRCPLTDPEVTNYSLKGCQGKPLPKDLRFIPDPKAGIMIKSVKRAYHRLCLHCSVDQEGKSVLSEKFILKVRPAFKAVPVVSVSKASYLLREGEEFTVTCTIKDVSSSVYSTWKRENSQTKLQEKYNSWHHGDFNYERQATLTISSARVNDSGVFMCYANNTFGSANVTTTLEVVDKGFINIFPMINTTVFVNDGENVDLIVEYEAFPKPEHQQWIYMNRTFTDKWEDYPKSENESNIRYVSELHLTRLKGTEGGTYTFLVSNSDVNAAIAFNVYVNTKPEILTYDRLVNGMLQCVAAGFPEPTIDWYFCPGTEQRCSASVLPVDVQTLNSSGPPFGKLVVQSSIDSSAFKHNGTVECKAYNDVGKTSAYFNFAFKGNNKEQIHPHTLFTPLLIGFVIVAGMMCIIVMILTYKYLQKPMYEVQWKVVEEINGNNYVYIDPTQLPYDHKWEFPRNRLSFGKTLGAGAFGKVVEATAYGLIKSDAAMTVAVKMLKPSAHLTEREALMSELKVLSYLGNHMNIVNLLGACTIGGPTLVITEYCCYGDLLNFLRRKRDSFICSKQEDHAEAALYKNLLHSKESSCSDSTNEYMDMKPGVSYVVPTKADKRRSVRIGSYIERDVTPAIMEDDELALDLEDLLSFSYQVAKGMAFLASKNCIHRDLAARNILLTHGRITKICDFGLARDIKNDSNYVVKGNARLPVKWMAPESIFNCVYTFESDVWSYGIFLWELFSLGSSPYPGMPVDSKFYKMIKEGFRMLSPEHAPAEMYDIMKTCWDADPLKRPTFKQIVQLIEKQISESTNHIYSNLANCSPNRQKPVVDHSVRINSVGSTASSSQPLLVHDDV
SMILES,tested on,test,test system,setting,measurement,value
COc1cccc(OC)c1-c1cc(C(=O)NC2(C(=O)O)C3CC4CC(C3)CC2C4)nn1-c1ccc(C(=O)N(C)CCCN(C)CCCN(C)C(=O)CN2CCN(CC(=O)[O-])CCN(CC(=O)[O-])CCN(CC(=O)[O-])CC2)cc1C(C)C.[177Lu+3] (stereo not shown),HT-29 tumour model,,"host not given, bone","72 h, tumour-bearing",tracer uptake,0.22 %ID/g
COc1cccc(NC(=O)Nc2ccc(Oc3nc4ccccc4n4cnnc34)cc2)c1,WISH,"cell growth or viability, MTT",,"25 µM, 24 h",viability,83.9%
O=C(c1ccc(F)cc1)C1CCN(CCn2c(=O)[nH]c3ccccc3c2=O)CC1,,"metabolic stability, mass spectrometry","mouse, liver microsomes",15 min,compound remaining,47.3%
O=C1CC[C@H](N2Cc3cc(N4CCN(CC5CCN(c6ccc([C@@H]7c8ccc(O)cc8CC[C@@H]7c7ccccc7)cc6)CC5)CC4)ccc3C2=O)C(=O)N1,,,"male Sprague-Dawley rat, plasma","oral, 20 mg/kg, fasted",MRT(0-inf),4.74 h
OC[C@H]1O[C@@H](Oc2ccc(O)c3cccc(O)c23)[C@H](O)[C@@H](O)[C@@H]1O,"ALDH1A2 (Homo sapiens, UniProt O94788)","enzyme activity, inhibitor, fluorescence",,,IC50,< 10 µM
NCc1cc2c(cc1F)C(=O)N(C1CCC(=O)NC1=O)C2 (stereo not shown),,,"male CD-1 mouse, plasma","intravenous, 1 mg/kg, 2 h",concentration,6.5 ng/mL
CCN1CCN(Cc2ccc(NC(=O)c3ccc(C)c(NC(=O)c4cncc(-c5cccs5)c4)c3)cc2C(F)(F)F)CC1,,,"mouse, plasma","intraperitoneal, 15 mg/kg, single dose",AUC(0-t),1600 ng·h/mL
O=C(CCCCCCC(=O)Nc1ccc(CC[18F])cc1)NO,LNCaP tumour model,,"male nude, tumour","intravenous, 1 h, tumour-bearing",tracer uptake,1.9 %ID/g
CN(C)C(=O)CN1CCN(c2cnc3c(cc(C(=O)NCc4ccc(Cl)cc4)c(=O)n3CC(=O)N3CC(C)(F)C3)n2)C1=O,KCNH2,"ion current, inhibitor, patch clamp",,40 µM,inhibition,42%
COc1cc(/C=C/C(=O)C(=Cc2ccc(O)cc2)C(=O)/C=C/c2ccc(O)c(OC)c2)ccc1O,WRL68,"cell growth or viability, MTT",,"1.55 µg/mL, 48 h",viability,109%
COc1cccc(-c2n[nH]c(SCc3ccccn3)n2)c1OC,,,"female Sprague-Dawley rat, plasma","oral, 30 mg/kg, 15 min, single dose",concentration,45400 ng/mL
CNc1ncc2c(/C=C/C(=O)N3CCC(OC)CC3)nn(Cc3cccc(C(F)(F)F)c3)c2n1,"KIT (Homo sapiens, UniProt P10721)","enzyme activity, inhibitor, radiometric",,1 µM,remaining activity,82%
CC1(F)CN(C(=O)Cn2c(=O)c(C(=O)NCc3ccc(Cl)cc3)cc3nc(N4CCCC4=O)cnc32)C1,KCNH2,"ion current, inhibitor",,40 µM,inhibition,44.8%
CC1(C)OC[C@@]2(C)[C@H]3CC[C@@H]4CN(Cc5ccccc5)[C@@H](C5=CCOC5=O)C[C@H]4[C@]3(C)CC[C@H]2O1,MRC5,"cell growth or viability, ATP luminescence",,"25 µM, 72 h",cell death,1.3%
COc1cccc2c(N3CCC(CCP(=O)(O)O)CC3)ncnc12,EMT6 tumour model,,"female BALB/c, tumour","subcutaneous, 50 mg/kg, tumour-bearing",Cmax,9000 ng/g
COc1cccc(OC)c1-c1cc(C(=O)NC2(C(=O)O)C3CC4CC(C3)CC2C4)nn1-c1ccc(C(=O)N(C)CCCN(C)CCCN(C)C(=O)CN2CCN(CC(=O)[O-])CCN(CC(=O)[O-])CCN(CC(=O)[O-])CC2)cc1C(C)C.[177Lu+3] (stereo not shown),HT-29 tumour model,,"host not given, tumour","intravenous, 4 h, tumour-bearing",tracer uptake,29 %ID/g
Nc1ccn([C@@H]2O[C@H](CO)[C@@H](O)C2(F)F)c(=O)n1,MCF7,"cell growth or viability, MTT",,"1.25 µg/mL, 24 h",viability,68.9%
CC(=O)OC[C@@]1(C)[C@H]2CC[C@@H]3CN(Cc4ccc(C(C)(C)C)cc4)[C@@H](C4=CCOC4=O)C[C@H]3[C@]2(C)CC[C@H]1OC(C)=O,MRC5,"cell growth or viability, ATP luminescence",,"25 µM, 72 h",cell death,11.3%
N#C[C@@]12C[C@@H]1[C@@H](n1cnc3c(N[C@@H](C4CCC4)C4CC4)nc(I)nc31)[C@H](O)[C@@H]2O,,,"male Wistar rat, plasma","oral, 10 mg/kg",bioavailability,13.1%

# A few entries again:
SMILES,tested on,test,test system,setting,measurement,value
COc1cccc(OC)c1-c1cc(C(=O)NC2(C(=O)O)C3CC4CC(C3)CC2C4)nn1-c1ccc(C(=O)N(C)CCCN(C)CCCN(C)C(=O)CN2CCN(CC(=O)[O-])CCN(CC(=O)[O-])CCN(CC(=O)[O-])CC2)cc1C(C)C.[177Lu+3] (stereo not shown),HT-29 tumour model,,"host not given, bone","72 h, tumour-bearing",tracer uptake,0.22 %ID/g
COc1cccc(NC(=O)Nc2ccc(Oc3nc4ccccc4n4cnnc34)cc2)c1,WISH,"cell growth or viability, MTT",,"25 µM, 24 h",viability,83.9%
O=C(c1ccc(F)cc1)C1CCN(CCn2c(=O)[nH]c3ccccc3c2=O)CC1,,"metabolic stability, mass spectrometry","mouse, liver microsomes",15 min,compound remaining,47.3%
